Published values gathered from unrelated publications.
Numbered parts are unrelated; each lists some results of a single study.

Block 1
Target: RNA binding protein fox-1 homolog 2, RRM domain, GST-SBP tag (RBFOX2, Homo sapiens, UniProt O43251-10, residues 100-194)
Method: RNA Bind-n-Seq
Molecule type: RNA
Matrix: in vitro
Tested at: 365 nM
Setting: natural RNA segment, single round, ends assumed
Baseline: no-protein control
Reading: higher = stronger binding
Residues (chain): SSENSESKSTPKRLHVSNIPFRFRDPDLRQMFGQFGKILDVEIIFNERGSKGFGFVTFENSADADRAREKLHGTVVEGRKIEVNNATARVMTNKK
Oligonucleotide	RBNS enrichment (R)
GGGAGUUCUACAGUCCGACGAUCGGAGGGGAUCCACACAGCUGCAACGUGAGGACAGAAUCAGUGCUGUGAAUGACAGCCUGCCACUCCCUGCCACAGGACUCCCUGUGAGCUGUACAGAGGACCAUGGAGCCUGGAAUUCUCGGGUGCCAA	0.547
GGGAGUUCUACAGUCCGACGAUCUAUUGUUAAACACCAAGUUUCACAUACAAGAGGUUUCUUUCAUUGUCAAAUUAAGAUAUGUAUUUGUAAGUUAUUGGUGGCUCAUUUAAACUGUAUCAUACAGUAAUGCCUGGAAUUCUCGGGUGCCAA	0.467
GGGAGUUCUACAGUCCGACGAUCUCCCUCCCUACACACCCAGUGCGCUGUGGUUACAGACCGUGGGCUCCCUGAGUUCUGCCGGUGAGCUGCCGUCACUGGGAUGCGCCAAGGACCUUUCCUCCCCGGUCUCAUGGAAUUCUCGGGUGCCAA	0.375
GGGAGUUCUACAGUCCGACGAUCUUGCUGAGACUCGGGGUACCGUUCUGCUGACCCAGCUCCCUUUAGUCACGUUUGCUUGGCUCUGGUACCAAAUAGUUGGGAUUACCGAAGAGUCCCCUUCCUUGCGUGUCUGGAAUUCUCGGGUGCCAA	0.331

Block 2
Target: Sal-like protein 4, full length isoform B (SALL4, Homo sapiens, UniProt Q9UJQ4-2, residues 1-616)
Method: universal PBM
Molecule type: double-stranded DNA, one strand shown
Matrix: in vitro
Tested at: not given
Setting: 8-mer, flanks averaged, mean of replicates
Reading: higher = stronger binding
Construct (chain): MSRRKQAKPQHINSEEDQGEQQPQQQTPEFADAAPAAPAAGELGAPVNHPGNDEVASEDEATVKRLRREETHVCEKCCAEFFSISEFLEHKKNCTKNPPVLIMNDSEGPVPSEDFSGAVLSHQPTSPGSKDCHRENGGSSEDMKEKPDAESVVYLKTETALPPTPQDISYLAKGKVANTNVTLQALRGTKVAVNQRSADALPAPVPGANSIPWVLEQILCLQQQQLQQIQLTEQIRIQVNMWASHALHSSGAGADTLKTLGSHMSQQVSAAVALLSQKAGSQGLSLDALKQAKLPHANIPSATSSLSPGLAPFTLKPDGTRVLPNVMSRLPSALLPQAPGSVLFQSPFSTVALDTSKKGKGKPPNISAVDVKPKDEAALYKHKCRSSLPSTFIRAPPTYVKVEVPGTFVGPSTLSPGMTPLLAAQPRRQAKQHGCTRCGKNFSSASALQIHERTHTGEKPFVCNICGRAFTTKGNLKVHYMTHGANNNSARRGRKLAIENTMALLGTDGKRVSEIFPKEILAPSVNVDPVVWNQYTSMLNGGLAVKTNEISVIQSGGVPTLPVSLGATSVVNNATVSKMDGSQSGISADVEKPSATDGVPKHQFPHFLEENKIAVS
Oligonucleotide	E-score
CTAATCAC	0.211
ACCCCCGA	0.0811
CGATCATC	0.0382
CCCTTGCG	-0.288

Block 3
Target: Transcription factor Sp1 (SP1, Homo sapiens, UniProt P08047, residues 1-785, full length assumed)
Chain of UniProt P08047 (whole entry, looked up): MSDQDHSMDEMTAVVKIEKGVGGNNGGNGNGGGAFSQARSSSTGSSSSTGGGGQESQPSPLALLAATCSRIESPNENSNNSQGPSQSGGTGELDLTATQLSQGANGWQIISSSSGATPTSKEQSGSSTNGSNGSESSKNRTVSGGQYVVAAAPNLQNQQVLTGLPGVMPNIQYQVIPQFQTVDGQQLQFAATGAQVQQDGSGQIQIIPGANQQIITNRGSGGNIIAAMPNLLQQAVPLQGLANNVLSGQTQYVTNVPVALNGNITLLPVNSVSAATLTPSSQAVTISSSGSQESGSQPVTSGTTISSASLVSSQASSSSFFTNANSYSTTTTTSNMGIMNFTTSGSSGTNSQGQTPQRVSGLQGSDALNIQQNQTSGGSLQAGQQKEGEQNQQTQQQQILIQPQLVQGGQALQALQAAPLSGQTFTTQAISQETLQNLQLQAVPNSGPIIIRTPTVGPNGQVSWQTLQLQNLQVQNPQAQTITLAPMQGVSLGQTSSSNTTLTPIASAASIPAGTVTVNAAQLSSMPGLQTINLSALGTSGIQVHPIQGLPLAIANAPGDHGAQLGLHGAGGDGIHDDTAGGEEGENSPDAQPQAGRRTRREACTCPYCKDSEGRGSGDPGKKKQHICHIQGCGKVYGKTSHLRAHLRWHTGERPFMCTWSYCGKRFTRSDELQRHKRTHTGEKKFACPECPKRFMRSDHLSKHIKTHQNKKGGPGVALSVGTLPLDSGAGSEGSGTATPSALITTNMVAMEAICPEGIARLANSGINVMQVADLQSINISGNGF
Method: protein-binding microarray
Molecule type: double-stranded DNA, one strand shown
Matrix: in vitro
Tested at: not given
Setting: k-mer, scored over probes, only values ≥0.25
Reading: higher = stronger binding
Oligonucleotide	E-score
ACACCTAC	0.273
TCCCCTAA	0.324
AATCCCCA	0.283
CCTACCCC	0.368
GGGTGGTA	0.311

Further values, each from its own experiment
Molecule	target	assay	system	setting	scale	endpoint	value
PhoQ, residues 284 288 289 292 302 303 TNASYF	PhoP, residues 12 14 15 18 19 FWNTL (Escherichia coli, UniProt P23836)	Sort-seq, refers to: YFP reporter	E. coli	PhoQ-PhoP variant library, together with: 10 µM Mg2+	baseline: high Mg2+ state, higher = stronger signaling	fold induction	3.07

Excerpt of the above (block 1):
Oligonucleotide	RBNS enrichment (R)
GGGAGUUCUACAGUCCGACGAUCUUGCUGAGACUCGGGGUACCGUUCUGCUGACCCAGCUCCCUUUAGUCACGUUUGCUUGGCUCUGGUACCAAAUAGUUGGGAUUACCGAAGAGUCCCCUUCCUUGCGUGUCUGGAAUUCUCGGGUGCCAA	0.331
GGGAGUUCUACAGUCCGACGAUCUCCCUCCCUACACACCCAGUGCGCUGUGGUUACAGACCGUGGGCUCCCUGAGUUCUGCCGGUGAGCUGCCGUCACUGGGAUGCGCCAAGGACCUUUCCUCCCCGGUCUCAUGGAAUUCUCGGGUGCCAA	0.375
